Experimental data of several laboratories.
Protocols differ between the studies behind these lines. “And” joins repeats or separate records; there may be more than shown. ± marks the error that the study gave.
rep main protease: Replicase polyprotein 1ab, main protease (rep, Severe acute respiratory syndrome coronavirus 2, UniProt P0DTD1)
Spike glycoprotein: Spike glycoprotein (Severe acute respiratory syndrome coronavirus 2, UniProt P0DTC2)
Sequence of UniProt P78348 (whole entry, unmodified, looked up): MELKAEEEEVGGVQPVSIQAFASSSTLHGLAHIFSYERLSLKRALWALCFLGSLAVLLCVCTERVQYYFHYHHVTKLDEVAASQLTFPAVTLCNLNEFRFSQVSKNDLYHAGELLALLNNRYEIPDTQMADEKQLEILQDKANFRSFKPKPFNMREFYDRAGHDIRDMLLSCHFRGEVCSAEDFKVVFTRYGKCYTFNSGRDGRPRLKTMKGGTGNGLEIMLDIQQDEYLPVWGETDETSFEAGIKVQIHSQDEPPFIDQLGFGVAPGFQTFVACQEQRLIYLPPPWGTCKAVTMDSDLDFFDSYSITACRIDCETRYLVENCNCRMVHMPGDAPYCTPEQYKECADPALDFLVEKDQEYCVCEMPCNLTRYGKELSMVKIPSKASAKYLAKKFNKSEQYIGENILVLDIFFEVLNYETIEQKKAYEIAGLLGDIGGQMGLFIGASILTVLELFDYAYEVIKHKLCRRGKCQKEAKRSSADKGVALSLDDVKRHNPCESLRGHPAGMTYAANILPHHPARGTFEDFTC
Sequence of UniProt Q7BQ98 (whole entry, looked up): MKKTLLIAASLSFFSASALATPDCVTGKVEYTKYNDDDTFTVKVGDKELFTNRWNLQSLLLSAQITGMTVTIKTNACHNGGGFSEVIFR

SMILES	tested on	assay	test system	conditions	how to read	measurement	result
COC(=O)C[C@H](NC(=O)OC(C)(C)C)C(=O)CF	rep main protease	reporter gene (mKate2), inhibitor	–	20 µM	–	inhibition	-0.647%
CCc1c(C(=O)C(N)=O)c2c(OCC(=O)O)cccc2n1Cc1ccccc1	Daboia russelii venom phospholipase A2	enzyme activity, inhibitor	MH population	1 µM, together with: NOB substrate	relative to: venom alone	remaining activity	88.8% and 83.7% and 88.3%
CC[C@H](C)[C@H](NC(=O)[C@H](CC(C)C)NC(=O)[C@H](Cc1c[nH]c2ccccc12)NC(=O)[C@H](CCC(N)=O)NC(=O)[C@@H](NC(=O)[C@H](Cc1ccccc1)NC(=O)[C@H](C)NC(=O)[C@H](CCCCNC(=O)COCCOCCNC(=O)COCCOCCNC(=O)CC[C@H](NC(=O)CCCCCCCCCCCCCCCCCCC(=O)O)C(=O)O)NC(=O)[C@H](CCC(N)=O)NC(=O)[C@H](C)NC(=O)[C@@H](NC(=O)[C@H](CCCCN)NC(=O)[C@H](CC(=O)O)NC(=O)[C@H](CC(C)C)NC(=O)C(C)(C)NC(=O)[C@@H](NC(=O)[C@H](CO)NC(=O)[C@H](Cc1ccc(O)cc1)NC(=O)[C@H](CC(=O)O)NC(=O)[C@H](CO)NC(=O)[C@@H](NC(=O)[C@H](Cc1ccccc1)NC(=O)[C@@H](NC(=O)CNC(=O)[C@H](CCC(=O)O)NC(=O)C(C)(C)NC(=O)[C@@H](N)Cc1ccc(O)cc1)[C@@H](C)O)[C@@H](C)O)[C@@H](C)CC)[C@@H](C)CC)C(C)C)C(=O)N[C@@H](C)C(=O)NCC(=O)NCC(=O)N1CCC[C@H]1C(=O)N[C@@H](CO)C(=O)N[C@@H](CO)C(=O)NCC(=O)N[C@@H](C)C(=O)N1CCC[C@H]1C(=O)N1CCC[C@H]1C(=O)N1CCC[C@H]1C(=O)N[C@@H](CO)C(N)=O	–	–	healthy human subjects, serum	5/5/8/10 mg escalating, baseline	–	total ALT	32 ± 13.6 U/L
Nc1ncnc2c([C@@H]3N[C@H](CO)[C@@H](O)[C@H]3O)c[nH]c12	Zaire ebolavirus	viral replication	HeLa, Kikwit	6.3 µM	–	inhibition	11.3%
O=c1cc(-c2ccc(O)c(O)c2)oc2cc(O)cc(O)c12	Spike glycoprotein	binding, BLI	–	–	–	kon	175 M⁻¹ s⁻¹
Cc1[nH]cnc1C(=O)NC[C@H](NC(=O)c1c(Cl)ccnc1F)c1ccc2ccccc2c1	rep main protease	enzyme activity, inhibitor	–	5 µM, run 2	–	inhibition	8.7%
CC[C@H](C)[C@H](NC(=O)[C@@H]1CCCN1C(=O)[C@H](C)NC(=O)[C@@H]1CSSC[C@@H]2NC(=O)[C@H](CC(=O)O)NC(=O)[C@H](CCCNC(=N)N)NC(=O)[C@H](CCC(=O)O)NC(=O)[C@H](CCCNC(=N)N)NC(=O)CNC(=O)[C@H](CC(=O)O)NC(=O)[C@@H]3CSSC[C@H](NC(=O)[C@H](CCC(=O)O)NC(=O)[C@H](CC(C)C)NC(=O)CNC(=O)[C@H](C)NC(=O)[C@H](CSSC[C@H](NC(=O)[C@H](Cc4ccccc4)NC(=O)[C@@H](N)CO)C(=O)N[C@@H](CC(C)C)C(=O)N[C@@H](C(C)C)C(=O)N[C@@H](CCCCN)C(=O)N[C@@H](Cc4c[nH]c5ccccc45)C(=O)N[C@@H](CCCCN)C(=O)N[C@@H](CCC(N)=O)C(=O)N3)NC2=O)C(=O)N[C@@H](Cc2c[nH]c3ccccc23)C(=O)N[C@@H](CCCCN)C(=O)N[C@@H](CCCNC(=N)N)C(=O)N[C@@H](CO)C(=O)NCC(=O)N[C@@H](CC(N)=O)C(=O)N[C@@H](CCCCN)C(=O)N[C@@H](CO)C(=O)N[C@@H](CO)C(=O)N[C@@H](C(C)C)C(=O)N1)C(=O)N[C@H](C(=O)O)[C@@H](C)O	ASIC1 (Homo sapiens, UniProt P78348, F352A)	outside-out patch clamp	HEK-293T ASIC1a knockout	1 µM, F352A mutant	–	deactivation time constant	2 ± 0.7 ms
Nc1ncnc2c1ncn2[C@H]1C[C@H](O)[C@@H](COP(=O)(O)OP(=O)(O)OP(=O)(O)O)O1	Gag-Pol polyprotein, reverse transcriptase (gag-pol, Human immunodeficiency virus type 1 group M subtype B, UniProt P04585, K653R)	substrate	–	K66R mutant, together with: matched T:A primer template	–	Km	0.0548 ± 0.0183 µM
O=C(NS(=O)(=O)c1ccc(Br)s1)c1ccc(Cl)cc1Cl	rep main protease	reporter gene (Gaussia luciferase), inhibitor	–	20 µM	–	inhibition	-0.288%
Nc1ccc(C(=O)N2CC3(CCC3)C[C@H]2CNC(=O)c2cncc3ccccc23)cc1O	rep main protease	enzyme activity, inhibitor	–	5 µM, run 1	–	inhibition	29.5%
C=C(C)[C@@H]1CC[C@]2(C(=O)Nc3ccc4ccccc4c3)CC[C@]3(C)[C@H](CC[C@@H]4[C@@]5(C)CC[C@H](O[C@@H]6O[C@H](CO)[C@@H](O[C@@H]7O[C@@H](C)[C@H](O)[C@@H](O)[C@H]7O)[C@H](O)[C@H]6O[C@@H]6O[C@@H](C)[C@H](O)[C@@H](O)[C@H]6O)C(C)(C)[C@@H]5CC[C@]43C)[C@@H]12	Spike glycoprotein, HR1/HR2 six-helix bundle (Severe acute respiratory syndrome coronavirus 2, UniProt P0DTC2)	circular dichroism	–	20 µM	–	six-helix bundle formation inhibition	inactive
CC[C@H](C)[C@H](NC(=O)[C@H](CC(C)C)NC(=O)[C@H](CO)NC(=O)[C@H](Cc1c[nH]cn1)NC(=O)[C@@H](NC(=O)[C@H](CC(C)C)NC(=O)[C@H](CO)NC(=O)[C@@H](NC(=O)[C@H](Cc1ccc(O)cc1)NC(=O)[C@H](CC(N)=O)NC(=O)[C@H](CC(N)=O)NC(=O)[C@@H](NC(=O)[C@H](CCC(=O)O)NC(=O)[C@H](CCCNC(=N)N)NC(=O)[C@H](CC(=O)O)NC(=O)[C@H](Cc1c[nH]c2ccccc12)NC(=O)[C@H](CCC(=O)O)NC(=O)[C@H](CCSC)NC(=O)[C@H](Cc1c[nH]c2ccccc12)NC(C)=O)[C@@H](C)CC)[C@@H](C)O)[C@@H](C)CC)C(=O)N[C@@H](CCC(=O)O)C(=O)N[C@@H](CCC(=O)O)C(=O)N[C@@H](CO)C(=O)N[C@@H](CCC(N)=O)C(=O)N[C@@H](CC(N)=O)C(=O)N[C@@H](CCC(N)=O)C(=O)N[C@@H](CCC(N)=O)C(=O)N[C@@H](CCC(=O)O)C(=O)N[C@@H](CCCCN)C(=O)N[C@@H](CC(N)=O)C(=O)N[C@@H](CCC(=O)O)C(=O)N[C@@H](CCC(N)=O)C(=O)N[C@@H](CCC(=O)O)C(=O)N[C@@H](CC(C)C)C(=O)N[C@@H](CC(C)C)C(=O)NCC(=O)N[C@@H](CO)C(=O)NCC(=O)N[C@@H](CSCC(=O)O[C@H]1CC[C@@]2(C)C(=CC[C@H]3[C@@H]4CC[C@H]([C@H](C)CCCC(C)(C)O)[C@@]4(C)CC[C@@H]32)C1)C(N)=O	–	monolayer insertion, Langmuir surface pressure	POPC monolayer	25 °C, initial pressure 20.5 mN/m	–	Kd	101 ± 8.2 nM
CC[C@@H](Oc1nc(Oc2cccc(-c3cccc(CN)c3)c2)c(F)cc1F)C(=O)O	rep main protease	viral replication, mKate2 reporter	SARS-CoV-2	20 µM	–	inhibition	-0.428%
O=C(CCc1cncc2ccccc12)N1CCc2cccc(-c3cn(CCO)nn3)c21	rep main protease	enzyme activity, inhibitor	–	5 µM	–	inhibition	23.3%
Cn1cnc(Cn2c(=O)[nH]/c(=N\c3cc4cn(C)nc4cc3Cl)n(Cc3cc(F)c(F)cc3F)c2=O)n1	–	–	human, moderate renal impairment, plasma	oral, 375 mg single dose	–	terminal half-life	54.7 h
O=C(NC[C@H]1CN(c2ccc(N3CCOCC3=O)cc2)C(=O)O1)c1ccc(Cl)s1	rep main protease	reporter gene (mKate2), inhibitor	–	20 µM	–	inhibition	-0.0674%
O=C(/C=C/c1ccc(O)c(O)c1)OC[C@H]1O[C@@H](OCCc2ccc(O)c(O)c2)[C@H](O)[C@@H](O)[C@@H]1O	Spike glycoprotein	binding	–	–	–	koff	0.00309 s⁻¹
O=C(O)c1cc(OCc2cn([C@@H]3O[C@H](CO)[C@H](O[C@H]4O[C@H](CO)[C@H](O)[C@H](O)[C@H]4O)[C@H](O)[C@H]3O)nn2)cc(OCc2cn([C@@H]3O[C@H](CO)[C@H](O[C@H]4O[C@H](CO)[C@H](O)[C@H](O)[C@H]4O)[C@H](O)[C@H]3O)nn2)c1	Shiga toxin subunit B (stxB, Shigella dysenteriae, UniProt Q7BQ98)	–	Escherichia coli	–	–	log IC50	-2.97
Nc1ccn([C@H]2C[C@H](O)[C@@H](COP(=O)(O)OP(=O)(O)OP(=O)(O)O)O2)c(=O)n1	Gag-Pol polyprotein, reverse transcriptase (gag-pol, Human immunodeficiency virus type 1 group M subtype B, UniProt P04585)	nucleotide misinsertion, steady-state kinetics	–	wild-type RT, together with: opposite template T	–	kcat	0.055 ± 0.00817 s⁻¹

Some of these lines once more:
SMILES	tested on	assay	test system	conditions	how to read	measurement	result
CC[C@@H](Oc1nc(Oc2cccc(-c3cccc(CN)c3)c2)c(F)cc1F)C(=O)O	rep main protease	viral replication, mKate2 reporter	SARS-CoV-2	20 µM	–	inhibition	-0.428%
O=C(CCc1cncc2ccccc12)N1CCc2cccc(-c3cn(CCO)nn3)c21	rep main protease	enzyme activity, inhibitor	–	5 µM	–	inhibition	23.3%
